Measured values from different studies.
Organism: Mycobacterium tuberculosis

SMILES	assay	system	setting	MIC
Cc1c(CCc2ccc(Cl)cc2)c(=O)n2c([nH]c3ccccc32)c1C#N	microbial growth, resazurin	H37RV	–	> 128 µg/mL
O=C(NC12CC3CC(CC(O)(C3)C1)C2)c1cc2ccc(Br)cc2[nH]1	–	H37Rv	–	2.57 µM
CC(C)(C)Nc1oc2c(c1C1CCN(C(=O)OC(C)(C)C)CC1)C(=O)c1ccccc1C2=O	resazurin microplate	H37Rv	7 days + 24 h	> 147 µM
Cc1cc(C(F)(F)F)c(CNC(=O)c2ccc(C(F)(F)F)nc2)c(=O)[nH]1	microbial growth, resazurin	H37RV	–	> 20 µg/mL
Cc1ccc(NCC(=O)N2CCN(c3nc4ncccc4cc3C#N)CC2)cc1C	microplate Alamar Blue	H37Rv	–	125 µM
C=CCn1[se]c2ccccc2c1=O	microbial growth, resazurin	H37RV	–	12.5 µg/mL
N#Cc1cc2cccnc2nc1N1CCN(C(=O)CNc2ccc(Cl)cc2)CC1	microplate Alamar Blue	H37Rv	–	61.4 µM
Cc1ccc2[nH]c(C(=O)NC(C)C34CC5CC(CC(C5)C3)C4)cc2c1 (stereo not drawn)	microplate alamarBlue	H37Rv	–	1 µg/mL
O=C(O)c1cn(C2CC2)c2cc(N3CCNCC3)c(F)cc2c1=O	microbial growth, resazurin	H37RV	–	9.4 µM
Cn1ncc2cc(-c3c(NC(C)(C)C)oc4c3C(=O)c3ccccc3C4=O)ccc21	resazurin microplate	H37Rv	7 days + 24 h	> 147 µM
Cc1c(C)c(=O)n2c([nH]c3ccccc32)c1C#N	microbial growth, resazurin	H37RV	–	> 128 µg/mL
CCCCNC=C1C(=O)C(=O)c2ccccc2C1=O	resazurin microplate	H37Rv	7 days + 24 h	> 147 µM
O=C(OCc1ccccc1)c1coc(-c2ccccn2)n1	–	H37Rv	168 h	1 to 4 µM
CCCCCCCCCCCC(=O)NS(=O)(=O)OC[C@H]1O[C@@H](n2cnc3c(N)ncnc32)[C@H](O)[C@@H]1O	–	MDR and XDR strains	–	3.13 to 25 µM
Cc1ccc(-n2nnc3c2CCC2(C=Cc4cc(Cl)ccc4O2)C3)cc1 (stereo not drawn)	microbial growth, resazurin	H37RV	7 days	25 µg/mL
O=C(NNc1ccccc1)c1cc2c(F)cc(F)cc2[nH]1	microplate alamarBlue	H37Rv	–	> 32 µg/mL
Cc1c(Cc2ccccn2)c(=O)n2c([nH]c3ccccc32)c1C#N	microbial growth, resazurin	H37RV	–	4 µg/mL
Cc1[nH]c(=O)c(NC(=O)c2ccc(C(F)(F)F)nc2)c2c1CCCC2	microbial growth, resazurin	H37RV	–	> 50 µg/mL
CC(NC(=O)c1cc2c(Cl)cc(Cl)cc2[nH]1)C12CC3CC(CC(C3)C1)C2 (stereo not drawn)	microplate alamarBlue	H37Rv	–	0.125 µg/mL
COc1cc(OC)cc(C(=O)NCc2c(C)c3c([nH]c2=O)CCCC3)c1	microbial growth, resazurin	H37RV	–	24.1 µg/mL
O=C(NC12CC3CC(CC(C3)C1)C2)c1ccc(NC(=O)c2cc3c(F)cc(F)cc3[nH]2)cc1	microplate alamarBlue	H37Rv	–	> 32 µg/mL
CC(C)(C)Nc1oc2c(c1-c1ccc([N+](=O)[O-])o1)C(=O)c1ccccc1C2=O	resazurin microplate	H37Rv	7 days + 24 h	> 147 µM
Cc1[nH]c(=O)c(CNC(=O)c2ccc(Br)nc2)c2c1CCCCC2	microbial growth, resazurin	H37RV	–	> 50 µg/mL
N#Cc1cc2cccnc2nc1N1CCN(CC(=O)Nc2ccc([N+](=O)[O-])cc2)CC1	microplate Alamar Blue	H37Rv	–	59.8 µM

SMILES	assay	system	setting	MIC
COc1ccc(-n2[se]c3ccccc3c2=O)cc1	microbial growth, resazurin	H37RV	–	25 µg/mL
CC(C)(C)NC=C1C(=O)C(=O)c2ccccc2C1=O	resazurin microplate	H37Rv	7 days + 24 h	62 to 124 µM
Cc1ccc(-n2nnc3c2CCC2(C=Cc4cc(C)ccc4O2)C3)cc1 (stereo not drawn)	MABA	H37Rv	7 days	> 25 µg/mL
CCc1cc(CC)c(CNC(=O)c2ccc([N+](=O)[O-])o2)c(=O)[nH]1	microbial growth, resazurin	H37RV	–	19.8 µg/mL
O=C1C(O)=C([C@H]2CC[C@H](c3ccc(Cl)cc3)CC2)C(=O)c2ccccc21	resazurin microplate	H37Rv	7 days + 24 h	> 147 µM
N#Cc1cc2cccnc2nc1N1CCN(CC(=O)Nc2ccc(F)c(F)c2)CC1	microplate Alamar Blue	H37Rv	–	61.2 µM
COc1cccc(Cc2c(C)c(C#N)c3[nH]c4ccccc4n3c2=O)c1	microbial growth, resazurin	H37RV	–	> 128 µg/mL
NNC(=O)c1ccncc1	microplate Alamar Blue	H37Rv	–	2.62 µM
Cc1ccc2c(c1)C=CC1(CCc3c(nnn3-c3ccc(Cl)cc3)C1)O2 (stereo not drawn)	microbial growth, resazurin	H37RV	7 days	12.5 µg/mL
COc1cccc(Nc2ccc(N)c3nonc23)c1	microbial growth	H37RV	–	32 µM
Cc1ccc(NC(=O)CN2CCN(c3nc4ncccc4cc3C#N)CC2)cc1C	microplate Alamar Blue	H37Rv	–	62.4 µM
COc1cc(C)cc(-c2ccc(C(=O)NCc3c4c(c(C)[nH]c3=O)CCCC4)cc2)c1	microbial growth, resazurin	H37RV	–	7.2 µg/mL
O=C(OCc1ccccc1)c1coc(-c2ccccc2)n1	–	drug-sensitive clinical strain 2, 7H9 glucose glycerol BSA medium	–	0.6 to 1.25 µg/mL
Cc1c(Cc2ccc(F)cc2)c(=O)n2c([nH]c3ccccc32)c1C#N	microbial growth, resazurin	H37RV	–	2 µg/mL
N#Cc1cc2cccnc2nc1N1CCN(CC(=O)Nc2ccc(Br)cc2)CC1	microplate Alamar Blue	H37Rv	–	55.4 µM
O=c1c2ccccc2[se]n1-c1ccc(F)cc1	microbial growth, resazurin	H37RV	–	25 µg/mL
Cc1[nH]c(=O)c(CNC(=O)c2ccc(Br)o2)c2c1CCCC2	microbial growth, resazurin	H37RV	–	3.4 µg/mL
C[C@H]1COC2(CCN(c3nc(=O)c4cc(C(F)(F)F)cc([N+](=O)[O-])c4s3)CC2)O1	–	H37Rv, replicating	–	0.003 µM
COc1ccc(-c2cc(-c3ccc(-n4cccc4)cc3)nc(N)n2)cc1	microbial growth, resazurin	H37RV	7 days	0.78 µg/mL
Clc1ccc2c(c1)C=CC1(CCc3c(nnn3Cc3ccccc3)C1)O2 (stereo not drawn)	microbial growth, resazurin	H37RV	7 days	12.5 µg/mL
NNC(=O)c1ccncc1	–	H37Rv	6 days	2 to 4 µM
Cc1ccc2c(c1)C=CC1(CCc3c(nnn3-c3ccccc3)C1)O2 (stereo not drawn)	microbial growth, resazurin	H37RV	7 days	1.56 µg/mL
Cc1c(CNC(=O)c2ccc(-c3ccc(C(F)(F)F)nc3)cc2)c(=O)[nH]c2ccccc12	microbial growth, resazurin	H37RV	–	> 50 µg/mL
Cc1cc(C)cc(NCC(=O)N2CCN(c3nc4ncccc4cc3C#N)CC2)c1	microbial growth, resazurin	H37RV	–	> 125 µM

Some of these lines once more:
SMILES	assay	system	setting	MIC
O=C(OCc1ccccc1)c1coc(-c2ccccc2)n1	–	drug-sensitive clinical strain 2, 7H9 glucose glycerol BSA medium	–	0.6 to 1.25 µg/mL
Cc1ccc2c(c1)C=CC1(CCc3c(nnn3-c3ccc(Cl)cc3)C1)O2 (stereo not drawn)	microbial growth, resazurin	H37RV	7 days	12.5 µg/mL
